Measurements pooled from the literature.
Each line is one published result; not all experiments were run side by side. “And” joins repeats or separate records; there may be more than shown. ± marks the error that the study gave.
Target: C-X-C chemokine receptor type 4 (CXCR4, Homo sapiens, UniProt P61073)
UniProt P61073, sequence (whole entry, looked up): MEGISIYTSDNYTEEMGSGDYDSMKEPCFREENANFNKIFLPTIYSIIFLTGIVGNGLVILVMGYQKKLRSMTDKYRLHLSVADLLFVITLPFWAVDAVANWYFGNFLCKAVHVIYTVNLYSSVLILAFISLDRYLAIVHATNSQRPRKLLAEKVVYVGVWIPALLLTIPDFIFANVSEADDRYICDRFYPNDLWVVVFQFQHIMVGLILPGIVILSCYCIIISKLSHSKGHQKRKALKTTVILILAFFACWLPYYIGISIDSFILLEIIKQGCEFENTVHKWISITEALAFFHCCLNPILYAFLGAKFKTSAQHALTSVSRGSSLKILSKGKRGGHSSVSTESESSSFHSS

Compound | assay | system | conditions | scale | measurement | value
CC(C)NCCCC[C@@H]1NC(=O)[C@H](Cc2ccc(O)cc2)NC(=O)[C@H](Cc2ccccc2)NC(=O)CC[C@H](C(=O)N[C@@H](CCCCNC(C)C)C(=O)N[C@@H](CCCCNC(=O)[C@H](CCC(=O)O)NC(=O)[C@H](CCC(=O)O)NC(=O)[C@H](CCC(=O)O)NC(=O)CN2CCN(CC(=O)O)CCN(CC(=O)O)CC2)C(N)=O)NC(=O)CNC(=O)[C@H](Cc2ccc3ccccc3c2)NC(=O)[C@@H](CCCNC(=N)N)NC1=O [fluorine-18 labelled] | radioligand cell uptake | U87.CD4.CXCR4 cells | 1 h | – | internalized fraction | 0.44 ± 0.04%
Cc1ccc(S(=O)(=O)NCc2ccc(CNC(=O)c3ccc(F)cc3)cc2)cc1 | binding, inhibitor, competitive binding | MDA-MB-231 | with: biotinylated TN14003 | – | EC | 1 nM
O=C(NCc1ccc(CNS(=O)(=O)c2ccc(F)cc2F)cc1)c1cncnc1 | binding, competitor | MDA-MB-231 | semi-quantitative, with: biotinylated TN14003 | – | effective concentration | 1 nM
CC[C@]12CCCN3CCc4c([nH]c5ccccc45)[C@]31N(Cc1cn(Cc3ccccc3)nn1)C(=O)C2 | beta-arrestin recruitment, antagonist, PathHunter chemiluminescence | – | 20 µM, with: agonist at EC80 | – | inhibition | 34%
Cc1ccc(S(=O)(=O)NCc2ccc(CNC(=O)c3cccc(C)c3)cc2)cc1 | binding, inhibitor, competitive binding | MDA-MB-231 | with: biotinylated TN14003 | – | EC | 1000 nM
O=C(NCc1ccc(CNS(=O)(=O)c2ccc3c(c2)CCO3)cc1)c1cccnc1 | binding, competitor | MDA-MB-231 | semi-quantitative, with: biotinylated TN14003 | – | effective concentration | ~1000 nM
O=C(NCc1ccc(CNS(=O)(=O)c2ccccc2)cc1)c1ccc(F)cc1 | binding, inhibitor, competitive binding | MDA-MB-231 | with: biotinylated TN14003 | – | EC | 100 nM
Cc1cc(C(=O)NCc2ccc(CNS(=O)(=O)c3ccc4c(c3)CCO4)cc2)n(C)n1 | binding, competitor | MDA-MB-231 | semi-quantitative, with: biotinylated TN14003 | – | effective concentration | ~1000 nM
CS(=O)(=O)c1ncc(N(Cc2ccccc2)Cc2ccco2)c(C(=O)Nc2ccccc2Cl)n1 | arrestin recruitment, antagonist, DiscoverX arrestin | – | 30 µM | baseline: control | inhibition | 0.48% and 0.38%
CN1CCN(c2cc(-c3ccncc3)c(-c3ccc4ccccc4c3)nn2)CC1 | antagonist, FLIPR | – | 10 µM | – | inhibition | 23%
c1ccc(N(Cc2ccco2)Cc2nnc(C3CCC3)o2)cc1 | arrestin recruitment, antagonist, DiscoverX arrestin | – | 30 µM | baseline: control | inhibition | 0.04% and -0.03%
O=C(NCc1ccc(CNS(=O)(=O)c2ccccc2)cc1)c1ccc([N+](=O)[O-])cc1 | binding, inhibitor, competitive binding | MDA-MB-231 | with: biotinylated TN14003 | – | EC | 100 nM
CCN(CC)CCOCCN(Cc1ccccc1)Cc1nc(Cc2ccccc2)no1 | arrestin recruitment, antagonist, DiscoverX arrestin | – | 30 µM | baseline: untreated | remaining activity | 0.15% and 0%
COc1cccc(C(=O)NCc2ccc(CNS(=O)(=O)c3ccc(C)cc3)cc2)c1 | binding, inhibitor, competitive binding | MDA-MB-231 | with: biotinylated TN14003 | – | EC | 10 nM
c1ccc(-n2cc(CCN(Cc3nc(C4CC4)no3)Cc3nc(C4CC4)no3)cn2)cc1 | arrestin recruitment, antagonist, DiscoverX arrestin | – | 30 µM | baseline: untreated | remaining activity | 0.07% and 0.19%
Cc1ccc(S(=O)(=O)NCc2ccc(CNC(=O)c3c(Cl)cc(Cl)cc3Cl)cc2)cc1 | binding, inhibitor, competitive binding | MDA-MB-231 | with: biotinylated TN14003 | – | EC | 10 nM
N=C(N)NCCCC[C@@H]1NC(=O)CCSSC[C@@H](C(N)=O)NC(=O)[C@@H]2CCCN2C(=O)[C@H](Cc2c[nH]c3ccccc23)NC(=O)[C@H](CC(=O)O)NC(=O)CNC1=O | arrestin recruitment, DiscoverX arrestin | – | 30 µM | – | inhibition | -3% and -1%
CC(C)NCCCC[C@H](NC(=O)[C@H]1CCC(=O)N[C@@H](Cc2ccccc2)C(=O)N[C@@H](Cc2ccc(O)cc2)C(=O)N[C@@H](CCCCNC(C)C)C(=O)N[C@H](CCCNC(=N)N)C(=O)N[C@@H](Cc2ccc3ccccc3c2)C(=O)NCC(=O)N1)C(N)=O | radioligand uptake, competitor | MM.1S cells | 75 µM, with: [18F]AlF-NOTA-SC | – | inhibition | 47%
CCn1c(COC(=O)c2ccccc2NC(=O)c2ccco2)nc2cc(S(=O)(=O)N(C)C)ccc21 | arrestin recruitment, antagonist, DiscoverX arrestin | – | 30 µM | baseline: control | inhibition | 0.48% and 0.17%
O=C(NCc1ccc(CNS(=O)(=O)c2ccc3c(c2)CCO3)cc1)c1scc2c1OCCO2 | binding, competitor | MDA-MB-231 | semi-quantitative, with: biotinylated TN14003 | – | effective concentration | 10 nM
S=C(NCCCCCCNC(=S)Nc1ccccc1)Nc1ccccc1 | arrestin recruitment, antagonist, DiscoverX arrestin | – | 30 µM | baseline: control | inhibition | 0.45% and 0.29%
Cc1ccc(S(=O)(=O)NCc2ccc(CNC(=O)c3ccccc3F)cc2)cc1 | binding, inhibitor, competitive binding | MDA-MB-231 | with: biotinylated TN14003 | – | EC | 1000 nM
